Measured values from different studies.
Numbered parts are unrelated; each lists some results of a single study. “And” joins repeats or separate records; there may be more than shown. Positions count from the first letter of the parent shown.
UniProt P06870, sequence (whole entry, looked up): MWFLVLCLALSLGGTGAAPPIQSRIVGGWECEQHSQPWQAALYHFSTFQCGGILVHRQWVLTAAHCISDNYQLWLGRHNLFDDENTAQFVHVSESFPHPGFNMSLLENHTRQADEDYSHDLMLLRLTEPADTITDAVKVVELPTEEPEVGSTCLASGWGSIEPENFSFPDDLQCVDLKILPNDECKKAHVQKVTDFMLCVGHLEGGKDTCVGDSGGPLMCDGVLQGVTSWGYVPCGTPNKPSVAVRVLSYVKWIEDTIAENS

Sample 1
Target: CCND3, cyclin fold, Cln2 fusion (human)
Method: yeast growth competition, sequencing
Sample: yeast
Notes: weak parent motif
Baseline: not given
Reading: higher = stronger binding
Parent: viral docking peptide; KGVKRKLFAEDSS; partner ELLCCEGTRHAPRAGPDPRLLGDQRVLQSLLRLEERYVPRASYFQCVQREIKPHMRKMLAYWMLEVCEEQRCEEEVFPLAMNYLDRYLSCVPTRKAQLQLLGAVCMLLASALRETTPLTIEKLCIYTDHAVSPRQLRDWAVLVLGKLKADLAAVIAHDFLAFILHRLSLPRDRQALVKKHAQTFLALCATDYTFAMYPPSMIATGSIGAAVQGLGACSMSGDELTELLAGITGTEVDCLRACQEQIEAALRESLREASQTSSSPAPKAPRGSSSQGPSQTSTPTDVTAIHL
Substitution	normalised enrichment score
KGVKRKLFAEISS [D11I]	0.185
KGVKRSLFAEDSS [K6S]	0.306
KGVKRGLFAEDSS [K6G]	0.347
KGVKRKLFAEDYS [S12Y]	-0.285
KGRKRKLFAEDSS [V3R]	0.16
KGVKRKLFAPDSS [E10P]	0.339
KGVKRKLDAEDSS [F8D]	-0.168
KGVKRILFAEDSS [K6I]	-0.0915

Sample 2
Cell line: HEK-293T-ACE2-TMPRSS2
Method: cell count
Tested at: 10 µM
Structure (SMILES)	viability [%]
Cn1nc(-c2nnc(-c3ccc(F)cc3)o2)c2c1CCN(S(=O)(=O)c1ccc(Cl)s1)C2	104
CN(CC1CCCO1)C(=O)c1coc(COc2ccc3c(c2)OCO3)n1 (centres unmarked)	86
[O-][n+]1ccccc1[S-].[O-][n+]1ccccc1[S-].[Zn+2]	107

Sample 3
Target: Sodium-dependent serotonin transporter (SLC6A4, Homo sapiens, UniProt P31645)
Read-out: cell-free assay
Tested at: 10 µM
Compound	inhibition [%]
CN1CCN(C(=O)C(C)(C)c2ccc(C(=O)Nc3cn4cc(-c5cc(C(C)(C)C)cc(C(C)(C)C)c5)ccc4n3)cc2)CC1	26.3
CC(C)(C)OC(=O)N1CCCC1CNC1CCC(c2cc(F)ccc2F)(S(=O)(=O)c2ccc(Cl)cc2)CC1 (centres unmarked)	6.71
Nc1nc(NCc2ccccc2)nc(-c2cccc(CO)c2)n1	9.44
Cc1ccccc1Oc1cc(-n2c(=O)cc(C(F)(F)F)[nH]c2=O)c2ccccc2c1Cl	-21.4
N#Cc1ccc(Nc2ccc3[nH]c(=O)[nH]c3c2)c(Cl)c1	21.1
COc1ccc2cc(OCC3(C(=O)O)CN(C(=O)c4ccc(F)cc4)C3)ccc2c1	-6.83
N#CC1(c2ccccn2)CCN(Cc2cc(C(=O)O)c(=O)n3ccccc23)CC1	19
CC1=C(C#N)C(c2ccc3[nH]nc(C)c3c2)C(C#N)=C(C)N1	-3.41
CC(=O)Nc1c(C(C)=O)c(=O)n(C)c2nc(-c3ccc(Cl)cc3Cl)c(-c3ccc(Cl)cc3)cc12	-9.53
CCOc1ccc(S(=O)(=O)Nc2ccc(Cl)cc2C#Cc2cnc(C(=O)O)cc2OC)c2ncccc12	6.49
CC(=O)Nc1ncc(CN2CCC[C@H](Cc3cc(C)nc(C)c3)C2)s1	7.21
O=c1nc(-c2ccccn2)sc2ccccc12	-10.2
NS(=O)(=O)c1cc(NC(=O)Cc2ccccc2)ccc1Oc1cccc(Cl)c1	22.7
CCOc1cc(N2C3COCC2CN(C(=O)[C@H]2C[C@H](O)CN2c2ccc(Cl)cc2)C3)ccc1Cl	33.4
O=C(Nc1ccc(Oc2ccc(F)cc2)cc1)N1CCc2ncccc2[C@H]1c1ccc(F)cc1	21.1
O=C(NNS(=O)(=O)c1ccccc1F)c1cc(F)cc(-c2ccccn2)c1	-16.7

Sample 4
Molecule: meglumine antimoniate
Organism: Leishmania infantum chagasi
Method: qPCR
Host: golden hamster chronic infection
Route: intraperitoneal
Dose: 50 mg/kg/day
Time: 10 days
test	test system	threshold cycle
item: TNF mRNA	spleen	26.8 cycles and 28 cycles and 28.4 cycles and 24 cycles and 24.9 cycles and 27.6 cycles
item: TGF-β mRNA	spleen	20.1 cycles and 24 cycles and 24.2 cycles and 20.6 cycles and 22.9 cycles
item: microglobulin mRNA	liver	19.3 cycles and 18.8 cycles and 19 cycles and 18 cycles and 18.9 cycles and 20 cycles
item: IFN-γ mRNA	liver	33 cycles and 32.9 cycles and 30.3 cycles and 31.8 cycles and 29.6 cycles and 30.4 cycles

Sample 5
Cell line: HEK-293T/ACE2
Tested at: 10 µM
Time: 16 h
Baseline: vehicle
Compound	viability
O=c1[nH]c2ccccc2n1C1CCN(CCCC(c2ccc(F)cc2)c2ccc(F)cc2)CC1	104%
COc1ccccc1OCC(O)CO (centres unmarked)	102%
COc1ccccc1OCC(O)COC(N)=O (centres unmarked)	99.3%

Other studies, line by line
SMILES	target	measurement	value
CC(=O)N[C@@H](CC(C)C)C(=O)N[C@@H](CC(C)C)C(=O)N[C@H](C=O)CCCNC(=N)N	Kallikrein-1 (KLK1, Homo sapiens, UniProt P06870)	IC50	3.49 µM

Excerpt of the above (sample 1):
Substitution	normalised enrichment score
KGVKRSLFAEDSS [K6S]	0.306
KGVKRGLFAEDSS [K6G]	0.347
